Assay results collected from several papers.
Lines come from different studies, so protocols differ. ± marks the error that the study gave. In brackets after ≈: the same amount, converted by molar mass.

SMILES | tested on | test | system | setting | scale | endpoint | result
O=C(NNc1cc(F)ccc1F)c1nnc(C23CC4CC(CC(C4)C2)C3)o1 | Fusarium graminearum | fungal growth, inhibitor | – | – | – | EC50 | 4.41 ± 0.4 µg/mL (≈ 11.8 µM)
CC[C@H](C)[C@H](NC(=O)[C@H](C)NC(=O)[C@H](CCCCN)NC(=O)[C@H](CC(C)C)NC(=O)[C@H](C)NC(=O)[C@@H](NC(=O)[C@H](Cc1c[nH]cn1)NC(=O)[C@H](CC(C)C)NC(=O)[C@@H](NC(=O)[C@@H](NC(=O)[C@H](CCCCN)NC(=O)[C@H](C)NC(=O)[C@H](C)NC(=O)[C@H](CO)NC(=O)[C@H](CCCCN)NC(=O)[C@H](Cc1ccccc1)NC(=O)[C@@H](NC(=O)[C@H](CCCCN)NC(=O)[C@H](CC(C)C)NC(=O)[C@H](Cc1ccccc1)NC(=O)[C@H](CO)NC(=O)[C@H](CCCCN)NC(=O)[C@H](Cc1c[nH]c2ccccc12)NC(=O)[C@H](CCCCN)NC(C)=O)[C@@H](C)O)[C@@H](C)O)C(C)C)[C@@H](C)O)C(=O)N[C@@H](CO)C(=O)N[C@@H](CO)C(N)=O | Klebsiella pneumoniae | – | – | 40 strains | – | MIC90 | 8 µg/mL (≈ 2.73 µM)
c1ccc(C(NCCNC(c2ccccc2)c2ccccc2)c2ccccc2)cc1 | imidazoline I2 central, rat | binding | – | 10 µM, Eurofins selectivity panel | – | inhibition | -1%
CC(=O)c1c(C)c2cnc(Nc3ccc(C4CCN(CCS(C)(=O)=O)CC4)cn3)nc2n(C2CCCC2)c1=O | – | RECIST v1.1 | HR+/HER2- advanced breast cancer patients | dose not given, phase Ib all arms pooled | – | best response stable disease | 50.6%
O=C(NNc1ccc(Cl)cc1)c1nnc(C23CC4CC(CC(C4)C2)C3)o1 | Fusarium graminearum | fungal growth, inhibitor | – | – | – | EC50 | 0.86 ± 0.05 µg/mL (≈ 2.31 µM)
O=C(O)c1cn(Cc2ccc(F)cc2)c2ccccc12 | – | glucuronidation, substrate | human intestinal microsomes | 60 min, 37 °C, added: UDPGA | – | Vmax | 0.59 ± 0.05 nmol/min/mg
CN1CCN(S(=O)(=O)c2cc([N+](=O)[O-])ccc2N(CCOS(C)(=O)=O)CCOS(C)(=O)=O)CC1 | – | – | NSG mice, sample BA PDX | intraperitoneal, 25 mg/kg weekly x3 | baseline: treated over vehicle | EFS ratio (T/C) | 4.2
CC[C@H](C)[C@@H]1NC(=O)[C@@H]2CCCN2C(=O)[C@H](CC(C)C)NC(=O)[C@H](CC(C)C)NC(=O)CNC(=O)[C@@H](NC(=O)[C@@H](NC(=O)[C@H](CC(=O)O)NC(=O)CNC(=O)[C@@H](NC(=O)[C@H](C)NC(=O)CNC(=O)[C@H](CCCCN)NC(=O)[C@H](CC(C)C)NC(=O)[C@H](CC(C)C)NC(=O)[C@H](CCCCN)NC(=O)CNC(=O)[C@@H](NC(=O)[C@@H](N)CC(C)C)C(C)C)C(C)C)C(C)C)CSSC[C@@H](C(=O)O)NC1=O | – | RNA-seq, measured: novel.213 mRNA | mouse traumatic brain injury, frontal cortex and hippocampus | dose not given | baseline: TBI plus compound vs TBI | log2 fold change | -2.08
C/C=C(/C)C(=O)O[C@H]1C(C)=C2[C@H]([C@@H]1OC(=O)CCCCCCC)[C@@](C)(OC(C)=O)C[C@H](OC(=O)CCC)[C@@]1(O)[C@H]2OC(=O)[C@@]1(C)O | HEK-293T | RNA-seq GSEA, measured: Hallmark bile acid metabolism | – | 500 nM, 6 h | direction not given | normalized enrichment score | -0.992
CN1CCN(C2(CNC3CCN(c4cccc(-c5cc6cc(F)ccc6[nH]5)c4)CC3)CCC2)CC1 | HOP-92 | – | – | – | – | GI50 | 1480 nM
CN1C(=O)C(C2C3=C(CC(C)(C)CC3=O)Oc3c(O)cccc32)C(=O)N(C)C1=O (stereo not drawn) | 3T3-L1 preadipocytes | adipogenesis, Oil Red O staining | – | IC20, 14 days, single replicate | – | lipid content | 0.547 OD492
COc1c(CCC[P+](c2ccccc2)(c2ccccc2)c2ccccc2)cc2c(c1OC)OCO2.[I-] | UACC-257 | SRB | – | – | – | LC50 | -4.24 log M
Nc1ncnc2c1ncn2[C@@H]1O[C@@H]2COP(=O)(O)O[C@H]3[C@@H](O)[C@H](n4cnc5c(=O)[nH]cnc54)O[C@@H]3COP(=O)(O)O[C@H]2[C@H]1O | HFF-1 | RNA sequencing, measured: Reactome TRAF3-dependent IRF activation | – | upregulated pathways | baseline: mock | fold enrichment | 16.2
COc1cc(CCC[P+](c2ccccc2)(c2ccccc2)c2ccccc2)c(OC)c2c1OCO2.[I-] | HOP-92 | SRB | – | – | – | GI50 | -5.94 log M
C[C@H](C(=O)N[C@H]1COc2ccccc2[C@@H]1S(C)(=O)=O)c1ccc(F)cc1 | L-type calcium channel, rat, Phenylalkylamine site | binding | – | 10 µM, Eurofins selectivity panel | – | inhibition | 0%

Excerpt of the above:
SMILES | tested on | test | system | setting | scale | endpoint | result
CC[C@H](C)[C@@H]1NC(=O)[C@@H]2CCCN2C(=O)[C@H](CC(C)C)NC(=O)[C@H](CC(C)C)NC(=O)CNC(=O)[C@@H](NC(=O)[C@@H](NC(=O)[C@H](CC(=O)O)NC(=O)CNC(=O)[C@@H](NC(=O)[C@H](C)NC(=O)CNC(=O)[C@H](CCCCN)NC(=O)[C@H](CC(C)C)NC(=O)[C@H](CC(C)C)NC(=O)[C@H](CCCCN)NC(=O)CNC(=O)[C@@H](NC(=O)[C@@H](N)CC(C)C)C(C)C)C(C)C)C(C)C)CSSC[C@@H](C(=O)O)NC1=O | – | RNA-seq, measured: novel.213 mRNA | mouse traumatic brain injury, frontal cortex and hippocampus | dose not given | baseline: TBI plus compound vs TBI | log2 fold change | -2.08
